Assay results gathered from unrelated publications.
Values joined by “and” are separate records of one study, mostly repeats; a detail may differ. ± gives the spread as reported.
Fructose-1,6-bisphosphate aldolase/phosphatase: Fructose-1,6-bisphosphate aldolase/phosphatase (Helicobacter pylori, UniProt Q9ZMG8)
FURIN: Furin (FURIN, Homo sapiens, UniProt P09958)

SMILES | target | assay | system | conditions | Ki
CCC[C@@]1(CCc2ccccc2)CC(O)=C([C@H](CC)c2cccc(NS(=O)(=O)c3ccc(C(F)(F)F)cn3)c2)C(=O)O1 | Gag-Pol polyprotein, protease (Human immunodeficiency virus type 1 group M subtype B, UniProt P03367, C567A/C595A/L533I/L563I/L576V/Q507K) | protease activity, inhibitor |  |  | 0.0076 ± 0.0003 µM
Oc1ccc(Nc2nc(-c3ccc(Cl)cc3)cs2)cc1 | SPHK2 (Homo sapiens, UniProt Q9NRA0) | enzyme activity, inhibitor, TLC |  |  | 40 µM
CC(C)C[C@H](N)C(=O)O | 2-isopropylmalate synthase (leuA, Neisseria meningitidis serogroup B, UniProt Q9JZG1) | enzyme activity, noncompetitive inhibitor, DTP-coupled |  | pH 7.5, 25 °C, wild-type enzyme, added: acetyl-CoA varied, α-ketoisovalerate 300 µM | 43 ± 4 µM
CCCSC[C@H]1O[C@@H](n2cnc3c2N=CNC[C@H]3O)C[C@@H]1O | Fructose-1,6-bisphosphate aldolase/phosphatase | inhibitor |  | pH 7.0, 25 °C, 77 nM enzyme, added: MTA 400 µM | 0.42 ± 0.14 µM
CC[C@H](C)CCCCC(=O)N[C@@H](CCN)C(=O)N[C@H](C(=O)N[C@@H](CCN)C(=O)N[C@H]1CCNC(=O)[C@H]([C@@H](C)O)NC(=O)[C@H](CCN)NC(=O)[C@H](CCN)NC(=O)[C@H](CC(C)C)NC(=O)[C@@H](CC(C)C)NC(=O)[C@H](CCN)NC1=O)[C@@H](C)O | Klebsiella pneumoniae ATCC 13883 lipopolysaccharide | displacement |  |  | 0.6 ± 0.1 µM
CC(=O)N[C@@H](CC(C)C)C(=O)N[C@@H](CC(C)C)C(=O)N[C@@H](CC(C)C)C(=O)N[C@@H](CC(C)C)C(=O)N[C@@H](CCCNC(=N)N)C(=O)N[C@H](C(=O)N[C@@H](CCCCN)C(=O)NCc1ccc(C(=N)N)cc1)C(C)(C)C | FURIN | enzyme activity, inhibitor, fluorescence |  |  | 0.000193 µM
NC(=O)[C@H](CCC(=O)O)NC(=O)[C@H](CCC(=O)O)NC(=O)[C@H](Cc1cc(-c2ccc(-c3cccc(Cl)c3)cc2)no1)CP(=O)(O)c1ccc(Br)cc1 | MMP12 (Homo sapiens, UniProt P39900) | inhibitor |  | added: human serum albumin 5 µM | 0.0022 ± 0.00015 µM
COc1ccc(C(=O)C=Cc2ccc(NC(=O)CN3CCN(S(C)(=O)=O)CC3)cc2)cc1OC | ACHE (Homo sapiens, UniProt P22303) | enzyme activity, inhibitor |  |  | 0.047 µM
C[S+]([O-])c1ccc(C(=O)C2CCN(C3Cc4ccccc4CC3O)CC2)cc1 (racemic) | SLC18A3 (Homo sapiens, UniProt Q16572) | ligand displacement, radioligand |  |  | 0.0065 µM
COc1ccc(C(=O)O[C@H]2[C@H](O[C@@H]3[C@@H](OC(C)=O)[C@H](O[C@H]4C[C@H]5[C@@H]6CC=C7C[C@@H](O)CC[C@]7(C)[C@H]6CC[C@]5(C)[C@@]4(O)[C@H](C)C(=O)CCC(C)C)OC[C@@H]3O)OC[C@@H](O)[C@@H]2O)cc1 | OSBP2 (Homo sapiens, UniProt Q969R2) | [3H]25-hydroxycholesterol binding, inhibitor, competitive radioligand binding | HEK293T cell lysate | added: 20 nM [3H]25-hydroxycholesterol | 0.071 ± 0.006 µM
CCCC(C(=O)O)[C@@H]1CCN[C@H]1C(=O)O (relative stereo) | NMDA receptor, rat | binding | cortical synaptosomes | added: [3H]-CGP 39653 | > 100 µM
CC(C)[C@H](NC(=O)[C@H](CCCNC(=N)N)NC(=O)[C@H](CCCNC(=N)N)NC(=O)[C@H](C)NC(=O)Cc1ccccc1)C(=O)N[C@@H](CCCNC(=N)N)C(=O)NCc1ccc(C(=N)N)cc1 | FURIN | enzyme activity, inhibitor, fluorescence |  |  | 4.91e-05 µM and ~5e-05 µM
C=C[C@H]1C[N@@]2CC[C@H]1C[C@@H]2[C@@H](O)c1ccnc2ccccc12 | SLC6A4 (Homo sapiens, UniProt P31645, I172M) | transporter uptake, inhibitor, radiometric |  |  | 0.31 µM
N[C@@H](CC(=O)O)C(=O)O | pycA (Staphylococcus aureus, UniProt A0A0H3JRU9, K411A) | pyruvate carboxylation, allosteric inhibitor, MDH-coupled |  |  | 24000 ± 3000 µM
CCCCCCCCCCCCC/C=C/[C@@H](O)[C@@H](N)COP(=O)(O)OCC[N+](C)(C)C | RYR1 (Oryctolagus cuniculus, UniProt P11716) | channel open probability, single channel recording, planar lipid bilayer |  | absence of calmodulin | 1.3 ± 0.3 µM
C[C@]1(Cn2ccnn2)[C@H](C(=O)O)N2C(=O)C[C@H]2S1(=O)=O | ampC (Burkholderia multivorans, UniProt A0A0H3KN52) | enzyme activity, inhibitor |  |  | 0.6 to 1.1 µM and 0.6 µM
O=P(O)(O)Oc1ccccc1OP(=O)(O)O | Signal transducer and activator of transcription 5B, SH2 (STAT5B, Homo sapiens, UniProt P51692) | ligand displacement, FP |  |  | 0.93 µM
CN(Cc1cnc2nc(N)nc(N)c2n1)c1ccc(C(=O)N[C@@H](CCC(=O)O)C(=O)O)cc1 | Dihydrofolate reductase (Staphylococcus aureus, UniProt C7C2U7) | inhibitor |  |  | 0.00247 ± 1e-05 µM
COc1ccc(S(=O)(=O)N(CC(C)C)C[C@@H](O)[C@H](Cc2ccccc2)NC(=O)O[C@H]2CCOC2)cc1 | Gag-Pol polyprotein, protease (gag-pol, Human immunodeficiency virus type 1 group M subtype B, UniProt P04585) | protease activity, inhibitor, FRET substrate cleavage |  |  | 0.0005 µM
CO[C@H]1CC=C2CCN3CCC4=C(CC(=O)OC4)[C@]23C1 | Neuronal acetylcholine receptor; alpha4/beta2 (Rattus norvegicus, UniProt P09483+P12390) | ligand displacement, radioligand |  | cell membranes | 0.0613 µM
c1ccc(CCN2CCCCC2)cc1 | opioid receptors, rat | binding | rat brain | 60 min, 25 °C, added: [3H]bremazocine 0.5 nM | > 10 µM
CN1CCC(c2noc3cc(F)ccc23)CC1 | HTR2A (Homo sapiens, UniProt P28223) | ligand displacement, radioligand |  | cell membranes | 0.0123 µM and ~0.012 µM
O=[N+]([O-])c1ccc(/C=C/c2ccc([N+](=O)[O-])cc2S(=O)(=O)O)c(S(=O)(=O)O)c1 | folA (Escherichia coli, UniProt P0ABQ4) | inhibitor |  | from IC50, non-competitive | 45.3 µM
CSC[C@H]1O[C@@H](n2cnc3c2N=CNC[C@H]3O)[C@H](O)[C@@H]1O | Fructose-1,6-bisphosphate aldolase/phosphatase | inhibitor |  | pH 7.0, 25 °C, 77 nM enzyme, added: MTA 400 µM | 0.56 ± 0.17 µM
CCCCCCCC(=O)O[C@H]1/C(=C/C(=O)OC)C[C@H]2C[C@H]([C@@H](C)O)OC(=O)CCCC(=O)OCC(C)(C)[C@]1(O)O2 | PRKCE (Homo sapiens, UniProt Q02156) | ligand displacement, radioligand |  |  | 0.498 µM
O=C(OCCN1CCOCC1)C1(c2ccccc2)CCCCC1 | TMEM97 (Homo sapiens, UniProt Q5BJF2) | ligand displacement, radioligand |  |  | 13.1 µM
CN(C(=O)/C=C/c1ccoc1)[C@H]1CC[C@@]2(O)[C@H]3Cc4cccc5c4[C@@]2(CCN3CC2CC2)[C@H]1O5 | Oprk1 (Mus musculus, UniProt P33534) | ligand displacement, radioligand |  |  | 0.00046 µM
CCOC(=O)[C@@](C)(O)[C@@H]1C[C@@H](CO[Si](c2ccccc2)(c2ccccc2)C(C)(C)C)O[C@H]1n1cc(F)c(=O)[nH]c1=O | Genome polyprotein, NS5 methyltransferase domain (GP1, West Nile virus, UniProt Q9Q6P4) | N7 methyltransferase activity, inhibitor, TLC, Cheng-Prusoff |  | added: SAM 80 µM, GpppA-RNA 0.36 µM | 123 µM

Repeated from above:
SMILES | target | assay | system | conditions | Ki
COc1ccc(S(=O)(=O)N(CC(C)C)C[C@@H](O)[C@H](Cc2ccccc2)NC(=O)O[C@H]2CCOC2)cc1 | Gag-Pol polyprotein, protease (gag-pol, Human immunodeficiency virus type 1 group M subtype B, UniProt P04585) | protease activity, inhibitor, FRET substrate cleavage |  |  | 0.0005 µM
O=P(O)(O)Oc1ccccc1OP(=O)(O)O | Signal transducer and activator of transcription 5B, SH2 (STAT5B, Homo sapiens, UniProt P51692) | ligand displacement, FP |  |  | 0.93 µM
CC[C@H](C)CCCCC(=O)N[C@@H](CCN)C(=O)N[C@H](C(=O)N[C@@H](CCN)C(=O)N[C@H]1CCNC(=O)[C@H]([C@@H](C)O)NC(=O)[C@H](CCN)NC(=O)[C@H](CCN)NC(=O)[C@H](CC(C)C)NC(=O)[C@@H](CC(C)C)NC(=O)[C@H](CCN)NC1=O)[C@@H](C)O | Klebsiella pneumoniae ATCC 13883 lipopolysaccharide | displacement |  |  | 0.6 ± 0.1 µM
